Experimental data collected from several papers.
Parts stem from different laboratories: compare values within a part only. Changes are numbered by the printed parent chain.
Sequence of UniProt O14730 (whole entry, looked up): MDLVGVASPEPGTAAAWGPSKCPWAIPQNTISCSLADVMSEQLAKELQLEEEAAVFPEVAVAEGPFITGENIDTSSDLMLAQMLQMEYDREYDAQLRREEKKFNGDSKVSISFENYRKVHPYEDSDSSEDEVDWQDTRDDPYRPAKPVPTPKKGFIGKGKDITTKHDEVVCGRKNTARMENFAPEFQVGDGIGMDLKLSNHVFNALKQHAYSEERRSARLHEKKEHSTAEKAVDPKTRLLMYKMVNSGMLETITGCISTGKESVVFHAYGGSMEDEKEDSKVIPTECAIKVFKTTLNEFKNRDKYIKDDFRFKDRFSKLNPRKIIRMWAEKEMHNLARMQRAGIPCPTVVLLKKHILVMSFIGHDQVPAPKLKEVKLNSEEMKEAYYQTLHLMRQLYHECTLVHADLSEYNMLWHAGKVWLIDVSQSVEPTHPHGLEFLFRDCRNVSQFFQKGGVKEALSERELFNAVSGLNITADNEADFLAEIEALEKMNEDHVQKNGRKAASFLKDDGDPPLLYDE
Sequence of UniProt P16591 (whole entry, looked up): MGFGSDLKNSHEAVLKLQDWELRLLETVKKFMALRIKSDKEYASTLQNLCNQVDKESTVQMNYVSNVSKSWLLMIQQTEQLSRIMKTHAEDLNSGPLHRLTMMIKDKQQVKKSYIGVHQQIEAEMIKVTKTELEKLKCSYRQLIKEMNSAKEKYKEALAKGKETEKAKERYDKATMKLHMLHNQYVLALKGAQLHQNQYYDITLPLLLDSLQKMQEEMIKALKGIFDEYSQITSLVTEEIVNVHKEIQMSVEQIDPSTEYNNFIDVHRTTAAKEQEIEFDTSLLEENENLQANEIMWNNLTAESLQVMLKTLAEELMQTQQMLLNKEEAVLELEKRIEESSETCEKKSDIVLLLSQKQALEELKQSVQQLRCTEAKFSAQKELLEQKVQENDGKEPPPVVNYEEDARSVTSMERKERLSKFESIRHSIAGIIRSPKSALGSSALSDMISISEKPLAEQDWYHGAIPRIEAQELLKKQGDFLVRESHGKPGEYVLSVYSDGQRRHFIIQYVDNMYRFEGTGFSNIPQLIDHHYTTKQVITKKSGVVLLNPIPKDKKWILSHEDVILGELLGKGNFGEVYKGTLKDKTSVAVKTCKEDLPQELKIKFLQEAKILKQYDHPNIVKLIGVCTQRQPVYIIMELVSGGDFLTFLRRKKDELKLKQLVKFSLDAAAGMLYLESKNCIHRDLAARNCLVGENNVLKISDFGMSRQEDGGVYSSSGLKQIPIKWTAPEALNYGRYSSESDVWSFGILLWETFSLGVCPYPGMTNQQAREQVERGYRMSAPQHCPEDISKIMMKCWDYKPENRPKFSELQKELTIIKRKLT
Sequence of UniProt P19525 (whole entry, looked up): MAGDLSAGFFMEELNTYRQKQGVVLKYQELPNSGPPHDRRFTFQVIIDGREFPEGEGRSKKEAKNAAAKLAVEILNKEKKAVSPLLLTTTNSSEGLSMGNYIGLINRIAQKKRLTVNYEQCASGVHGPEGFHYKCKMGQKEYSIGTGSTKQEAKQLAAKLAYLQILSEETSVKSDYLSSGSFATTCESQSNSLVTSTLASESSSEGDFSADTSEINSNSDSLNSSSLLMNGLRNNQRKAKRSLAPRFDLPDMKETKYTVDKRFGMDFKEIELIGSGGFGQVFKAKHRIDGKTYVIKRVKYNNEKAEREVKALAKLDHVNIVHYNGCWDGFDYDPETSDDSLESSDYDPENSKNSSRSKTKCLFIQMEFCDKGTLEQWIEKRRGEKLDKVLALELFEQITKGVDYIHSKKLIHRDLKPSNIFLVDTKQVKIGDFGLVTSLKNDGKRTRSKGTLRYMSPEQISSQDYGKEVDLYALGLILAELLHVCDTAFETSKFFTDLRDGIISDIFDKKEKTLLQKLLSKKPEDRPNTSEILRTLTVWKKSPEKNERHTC
Sequence of UniProt P52333 (whole entry, looked up): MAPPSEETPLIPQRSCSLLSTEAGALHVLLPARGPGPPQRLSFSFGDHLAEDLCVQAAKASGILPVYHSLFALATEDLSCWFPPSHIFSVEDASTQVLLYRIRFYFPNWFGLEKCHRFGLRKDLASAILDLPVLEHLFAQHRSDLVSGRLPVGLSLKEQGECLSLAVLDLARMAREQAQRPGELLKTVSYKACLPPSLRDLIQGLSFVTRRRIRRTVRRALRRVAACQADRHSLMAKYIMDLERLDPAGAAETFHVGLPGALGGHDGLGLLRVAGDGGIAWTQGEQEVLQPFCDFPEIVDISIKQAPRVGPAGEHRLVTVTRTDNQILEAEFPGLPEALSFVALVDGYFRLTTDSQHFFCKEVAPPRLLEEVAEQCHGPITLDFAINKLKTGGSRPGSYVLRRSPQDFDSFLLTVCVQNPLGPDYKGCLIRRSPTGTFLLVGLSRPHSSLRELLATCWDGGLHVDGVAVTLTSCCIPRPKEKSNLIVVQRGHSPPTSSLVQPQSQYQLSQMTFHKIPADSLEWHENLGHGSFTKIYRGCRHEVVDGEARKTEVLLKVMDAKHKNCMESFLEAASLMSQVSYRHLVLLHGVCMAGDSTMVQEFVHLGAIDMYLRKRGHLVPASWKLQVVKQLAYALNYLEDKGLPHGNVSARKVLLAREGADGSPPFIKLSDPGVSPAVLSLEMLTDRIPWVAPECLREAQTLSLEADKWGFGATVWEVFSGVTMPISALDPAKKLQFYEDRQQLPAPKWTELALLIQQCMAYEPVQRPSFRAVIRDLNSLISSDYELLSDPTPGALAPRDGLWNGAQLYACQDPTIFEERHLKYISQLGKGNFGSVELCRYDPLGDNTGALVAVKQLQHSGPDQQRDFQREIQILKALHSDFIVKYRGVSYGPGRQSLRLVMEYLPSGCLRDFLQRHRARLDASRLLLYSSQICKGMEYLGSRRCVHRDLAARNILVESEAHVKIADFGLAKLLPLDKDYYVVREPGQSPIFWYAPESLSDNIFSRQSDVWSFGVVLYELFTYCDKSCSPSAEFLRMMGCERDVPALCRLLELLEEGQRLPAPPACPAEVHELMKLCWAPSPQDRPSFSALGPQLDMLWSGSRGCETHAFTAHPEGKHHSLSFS
Sequence of UniProt Q86Y07 (whole entry, looked up): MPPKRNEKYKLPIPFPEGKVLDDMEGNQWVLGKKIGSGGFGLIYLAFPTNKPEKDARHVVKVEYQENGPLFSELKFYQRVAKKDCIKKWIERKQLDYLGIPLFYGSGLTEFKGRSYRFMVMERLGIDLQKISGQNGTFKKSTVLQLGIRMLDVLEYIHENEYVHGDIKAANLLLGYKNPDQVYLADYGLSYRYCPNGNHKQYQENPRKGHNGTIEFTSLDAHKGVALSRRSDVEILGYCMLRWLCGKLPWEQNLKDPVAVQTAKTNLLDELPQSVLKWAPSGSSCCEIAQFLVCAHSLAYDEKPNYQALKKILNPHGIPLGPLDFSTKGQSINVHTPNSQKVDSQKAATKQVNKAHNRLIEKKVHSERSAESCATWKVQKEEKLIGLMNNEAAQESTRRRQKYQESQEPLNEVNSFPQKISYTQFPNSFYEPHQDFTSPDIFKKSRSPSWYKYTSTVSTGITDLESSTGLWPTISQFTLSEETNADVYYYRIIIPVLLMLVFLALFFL

Series 1
Target: Fragile X messenger ribonucleoprotein 1, C-terminal low-complexity region (Fmr1, Mus musculus, UniProt P35922)
Technique: RNA Bind-n-Seq
Molecule type: RNA
Medium: in vitro
Concentration: 200 nM
Notes: whole 134-nt RNA, ends assumed
Together with: 150 mM KCl
Relative to: input library
Direction: higher = stronger binding
Shared flanks, not repeated: GGGAGUUCUACAGUCCGACGAUC … UGGAAUUCUCGGGUGUCAAGG
Sequence	log2 enrichment
CUCAAGUCCUGUGCUACACAUCGUAUGUACCGAAUCGGGUUGGUUGGGUUGGGGAAAGUAUUAUGUUACGCCGUUCGGAUCUGCACUUCC	0.885
GCAGGAAGUAAAAACAAAUGGAAAUGCUUCGGAUAGUGGCAGGGGUGGGGAAAGCUAAGGAAAGGGUGGGAUGGGAGUGGGUAAAGAGUU	0.325
UGUCUCGAGCAGGGGACAAGACGUUCGAGGAGUACCUGGAUGAGUAUUACCGGCUGGACUACGAGGACAUCAUCGACGACCUGCCCUGUC	-0.912
CUCAAGUCCUGUGCUACACAUCGUAUGUACCGAAUCGGAGGAAAGGAAAAAGGAAAGUAUUAUGUUACGCCGUUCGGAUCUGCACUUCCA	-0.365
UGGCAGGUGGAUUUUGUUUAUUUUUUUAGCUCAUUUCCAGGGGUGGGAAUUUUUUUUUAAUAUGUGUCAUGAAUAAAGUUGUUUUUGAAA	0.104
CCUCAAGUCCUGUGCUACACAUCGUAUGUACCGAAUCGGAAAGGUUUGGUGGAAAGUAUUAUGUUACGCCGUUCGGAUCUGCACUUCCAG	-0.339
CCUCAAGUCCUGUGCUACACAUCGUAUGUACCGAAUCGGGAGGGAGGGAGGGAAAGUAUUAUGUUACGCCGUUCGGAUCUGCACUUCCAG	1.28
UCAAGUCCUGUGCUACACAUCGUAUGUACCGAAUCGGGGUUUGGUUUGGGUUUGGAAAGUAUUAUGUUACGCCGUUCGGAUCUGCACUUC	-0.174

Series 2
Target: ABI1, truncated, D143A, DHFR fusion (Arabidopsis thaliana)
Technique: DHFR PCA, deep sequencing
Medium: yeast
Notes: methotrexate growth selection, single substitutions
Together with: (+)-ABA 0.0091 µM
Relative to: wild-type fitted maximum
Direction: higher = stronger binding
Starting sequence: PYL1, truncated, DHFR fusion (Arabidopsis thaliana); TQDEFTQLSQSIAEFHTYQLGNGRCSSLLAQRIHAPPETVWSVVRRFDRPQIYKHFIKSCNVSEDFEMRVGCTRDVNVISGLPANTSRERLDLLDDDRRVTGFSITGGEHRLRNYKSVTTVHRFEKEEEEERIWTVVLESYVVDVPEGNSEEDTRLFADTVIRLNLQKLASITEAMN; partner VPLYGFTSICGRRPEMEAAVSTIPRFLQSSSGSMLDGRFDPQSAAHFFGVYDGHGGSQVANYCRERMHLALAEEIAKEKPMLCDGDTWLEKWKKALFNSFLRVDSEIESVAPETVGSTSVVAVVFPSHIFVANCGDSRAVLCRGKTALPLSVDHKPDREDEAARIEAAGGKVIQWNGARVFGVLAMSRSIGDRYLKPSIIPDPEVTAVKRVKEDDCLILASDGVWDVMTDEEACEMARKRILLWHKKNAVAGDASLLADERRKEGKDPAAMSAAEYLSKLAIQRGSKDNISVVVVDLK
Variant	relative binding score [%]
N22R	37.9
E129N	18.2
Q2C	34.1
Y115F	21.9
A170R	23.7
V118K	2.27
N77A	39.9
E174F	-0.871

Series 3
Target: Mitogen-activated protein kinase kinase kinase kinase 4 (MAP4K4, Homo sapiens, UniProt O95819)
Sequence of UniProt O95819 (whole entry, looked up): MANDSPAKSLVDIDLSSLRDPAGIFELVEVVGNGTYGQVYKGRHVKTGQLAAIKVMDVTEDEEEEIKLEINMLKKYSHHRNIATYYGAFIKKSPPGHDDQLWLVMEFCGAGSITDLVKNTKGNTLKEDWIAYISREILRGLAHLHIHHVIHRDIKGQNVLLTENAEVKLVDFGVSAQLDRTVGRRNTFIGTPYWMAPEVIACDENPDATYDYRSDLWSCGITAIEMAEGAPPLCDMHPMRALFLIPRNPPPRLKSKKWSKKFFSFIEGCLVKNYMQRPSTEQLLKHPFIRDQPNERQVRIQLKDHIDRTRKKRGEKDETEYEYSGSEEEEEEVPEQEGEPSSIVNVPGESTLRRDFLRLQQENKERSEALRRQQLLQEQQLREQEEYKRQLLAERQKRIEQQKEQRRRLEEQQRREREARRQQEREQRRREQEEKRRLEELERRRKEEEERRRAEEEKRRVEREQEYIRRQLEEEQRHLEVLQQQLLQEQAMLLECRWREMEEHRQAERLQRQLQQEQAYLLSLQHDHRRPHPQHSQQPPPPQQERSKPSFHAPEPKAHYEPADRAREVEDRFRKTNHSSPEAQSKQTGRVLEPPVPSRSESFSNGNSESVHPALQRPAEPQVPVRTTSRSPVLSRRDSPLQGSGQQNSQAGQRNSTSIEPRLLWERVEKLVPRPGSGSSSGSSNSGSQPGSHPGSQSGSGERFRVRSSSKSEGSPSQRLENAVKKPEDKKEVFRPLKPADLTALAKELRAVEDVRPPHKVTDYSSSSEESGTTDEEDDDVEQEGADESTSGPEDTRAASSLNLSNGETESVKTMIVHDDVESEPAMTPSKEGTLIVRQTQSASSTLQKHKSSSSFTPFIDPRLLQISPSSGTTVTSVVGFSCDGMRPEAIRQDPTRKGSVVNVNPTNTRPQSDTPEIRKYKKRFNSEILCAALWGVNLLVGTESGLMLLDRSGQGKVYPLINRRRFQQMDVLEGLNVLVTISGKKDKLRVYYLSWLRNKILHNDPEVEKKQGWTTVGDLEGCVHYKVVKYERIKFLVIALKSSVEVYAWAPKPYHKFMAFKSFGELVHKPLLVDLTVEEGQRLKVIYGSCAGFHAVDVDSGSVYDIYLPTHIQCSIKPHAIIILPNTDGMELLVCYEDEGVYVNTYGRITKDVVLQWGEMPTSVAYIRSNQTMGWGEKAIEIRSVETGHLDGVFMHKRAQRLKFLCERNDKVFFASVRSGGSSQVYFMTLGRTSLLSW
Observed: enzyme activity
Action: inhibitor
Concentration: 0.5 µM
Relative to: control
Compound	remaining activity
Cc1ccc(NC(=O)c2ccc(CN3CCN(C)CC3)cc2)cc1Nc1nc(-c2cccnc2)cs1	72.2%
COc1cc2nccc(Oc3ccc(NC(=S)NC(=O)c4ccccc4C)cc3)c2cc1OC	87.8%
Cn1sc(=O)n(Cc2ccccc2)c1=O	97%
O=C1NC(=O)C(c2cn(CCCO)c3ncccc23)=C1c1cnccn1	36.4%
COc1cc2ncnc(Nc3ccc(F)c(Cl)c3)c2cc1OCCCN1CCOCC1	97.8%
Cn1c2ccccc2c2c3c(c4c5ccccc5n(CCC#N)c4c21)CNC3=O	0.433%

Series 4
SMILES: Cc1c(NC(=O)c2cc(C(N)=O)nc3cc(F)ccc23)c(C(F)(F)F)nn1Cc1ccc(C#N)cc1
Technique: competition with immobilised ligand
Concentration: 1 µM
target	assay	remaining binding
Calcium/calmodulin-dependent protein kinase type 1 (CAMK1, Homo sapiens, UniProt Q14012)	cell-free assay	100%
Serine/threonine-protein kinase VRK2 (VRK2, Homo sapiens, UniProt Q86Y07)	cell-free assay	72%
Tyrosine-protein kinase Blk (BLK, Homo sapiens, UniProt P51451)	cell-free assay	77%
Serine/threonine-protein kinase Sgk2 (SGK2, Homo sapiens, UniProt Q9HBY8)	cell-free assay	80%
Serine/threonine-protein kinase RIO3 (RIOK3, Homo sapiens, UniProt O14730)	cell-free assay	75%
Casein kinase I isoform epsilon (CSNK1E, Homo sapiens, UniProt P49674)	cell-free assay	100%
Cyclin-dependent kinase 2 (CDK2, Homo sapiens, UniProt P24941)	cell-free assay	91%
Interferon-induced, double-stranded RNA-activated protein kinase (EIF2AK2, Homo sapiens, UniProt P19525)	cell-free assay	100%
Epidermal growth factor receptor (EGFR, Homo sapiens, UniProt P00533, L858R/T790M)	cell-free assay	93%
Serine/threonine-protein kinase NLK (NLK, Homo sapiens, UniProt Q9UBE8)	binding	100%
Tyrosine-protein kinase Fer (FER, Homo sapiens, UniProt P16591)	cell-free assay	99%
Tyrosine-protein kinase ABL1, phosphorylated (ABL1, Homo sapiens, UniProt P00519, Y253F)	cell-free assay	80%
Ephrin type-A receptor 1 (EPHA1, Homo sapiens, UniProt P21709)	cell-free assay	74%
Tyrosine-protein kinase JAK3, JH1 (JAK3, Homo sapiens, UniProt P52333)	cell-free assay	90%

A few entries again (series 4):
target	assay	remaining binding
Serine/threonine-protein kinase NLK (NLK, Homo sapiens, UniProt Q9UBE8)	binding	100%
Serine/threonine-protein kinase Sgk2 (SGK2, Homo sapiens, UniProt Q9HBY8)	cell-free assay	80%
Ephrin type-A receptor 1 (EPHA1, Homo sapiens, UniProt P21709)	cell-free assay	74%
Tyrosine-protein kinase ABL1, phosphorylated (ABL1, Homo sapiens, UniProt P00519, Y253F)	cell-free assay	80%
Epidermal growth factor receptor (EGFR, Homo sapiens, UniProt P00533, L858R/T790M)	cell-free assay	93%
Serine/threonine-protein kinase RIO3 (RIOK3, Homo sapiens, UniProt O14730)	cell-free assay	75%
